Published values collected from several papers.
Every numbered part comes from another study and shows a few of its results, in no order.
Chain of UniProt O15294 (whole entry, looked up): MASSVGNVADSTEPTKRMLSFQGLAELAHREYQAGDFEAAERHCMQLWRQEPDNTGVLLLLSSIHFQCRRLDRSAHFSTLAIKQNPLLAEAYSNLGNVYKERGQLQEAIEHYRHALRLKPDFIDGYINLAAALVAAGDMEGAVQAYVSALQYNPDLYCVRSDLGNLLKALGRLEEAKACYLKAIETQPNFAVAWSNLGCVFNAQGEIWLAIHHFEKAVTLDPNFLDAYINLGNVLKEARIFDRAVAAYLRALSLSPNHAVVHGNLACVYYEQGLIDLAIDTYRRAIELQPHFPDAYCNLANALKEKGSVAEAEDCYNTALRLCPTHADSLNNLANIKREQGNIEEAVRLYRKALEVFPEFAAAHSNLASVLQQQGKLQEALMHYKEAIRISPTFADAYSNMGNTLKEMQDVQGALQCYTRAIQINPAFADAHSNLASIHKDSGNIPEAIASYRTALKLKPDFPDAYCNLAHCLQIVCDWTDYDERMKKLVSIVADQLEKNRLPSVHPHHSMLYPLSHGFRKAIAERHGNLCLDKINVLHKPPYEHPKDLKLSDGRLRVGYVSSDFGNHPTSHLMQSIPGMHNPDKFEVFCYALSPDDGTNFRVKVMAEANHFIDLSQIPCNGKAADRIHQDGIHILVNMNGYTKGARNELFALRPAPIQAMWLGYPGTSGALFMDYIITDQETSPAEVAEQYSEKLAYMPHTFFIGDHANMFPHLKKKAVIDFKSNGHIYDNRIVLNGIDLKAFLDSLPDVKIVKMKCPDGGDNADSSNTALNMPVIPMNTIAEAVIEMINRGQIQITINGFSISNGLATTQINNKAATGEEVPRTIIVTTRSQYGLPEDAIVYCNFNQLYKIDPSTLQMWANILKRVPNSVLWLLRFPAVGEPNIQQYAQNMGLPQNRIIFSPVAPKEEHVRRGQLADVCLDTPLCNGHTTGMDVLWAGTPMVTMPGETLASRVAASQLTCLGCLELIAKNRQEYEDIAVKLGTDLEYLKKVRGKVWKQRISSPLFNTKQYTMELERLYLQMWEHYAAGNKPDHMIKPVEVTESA

Block 1
Target: Sal-like protein 4, full length isoform A (SALL4, Homo sapiens, UniProt Q9UJQ4, residues 1-1053)
Chain of UniProt Q9UJQ4 (whole entry, looked up): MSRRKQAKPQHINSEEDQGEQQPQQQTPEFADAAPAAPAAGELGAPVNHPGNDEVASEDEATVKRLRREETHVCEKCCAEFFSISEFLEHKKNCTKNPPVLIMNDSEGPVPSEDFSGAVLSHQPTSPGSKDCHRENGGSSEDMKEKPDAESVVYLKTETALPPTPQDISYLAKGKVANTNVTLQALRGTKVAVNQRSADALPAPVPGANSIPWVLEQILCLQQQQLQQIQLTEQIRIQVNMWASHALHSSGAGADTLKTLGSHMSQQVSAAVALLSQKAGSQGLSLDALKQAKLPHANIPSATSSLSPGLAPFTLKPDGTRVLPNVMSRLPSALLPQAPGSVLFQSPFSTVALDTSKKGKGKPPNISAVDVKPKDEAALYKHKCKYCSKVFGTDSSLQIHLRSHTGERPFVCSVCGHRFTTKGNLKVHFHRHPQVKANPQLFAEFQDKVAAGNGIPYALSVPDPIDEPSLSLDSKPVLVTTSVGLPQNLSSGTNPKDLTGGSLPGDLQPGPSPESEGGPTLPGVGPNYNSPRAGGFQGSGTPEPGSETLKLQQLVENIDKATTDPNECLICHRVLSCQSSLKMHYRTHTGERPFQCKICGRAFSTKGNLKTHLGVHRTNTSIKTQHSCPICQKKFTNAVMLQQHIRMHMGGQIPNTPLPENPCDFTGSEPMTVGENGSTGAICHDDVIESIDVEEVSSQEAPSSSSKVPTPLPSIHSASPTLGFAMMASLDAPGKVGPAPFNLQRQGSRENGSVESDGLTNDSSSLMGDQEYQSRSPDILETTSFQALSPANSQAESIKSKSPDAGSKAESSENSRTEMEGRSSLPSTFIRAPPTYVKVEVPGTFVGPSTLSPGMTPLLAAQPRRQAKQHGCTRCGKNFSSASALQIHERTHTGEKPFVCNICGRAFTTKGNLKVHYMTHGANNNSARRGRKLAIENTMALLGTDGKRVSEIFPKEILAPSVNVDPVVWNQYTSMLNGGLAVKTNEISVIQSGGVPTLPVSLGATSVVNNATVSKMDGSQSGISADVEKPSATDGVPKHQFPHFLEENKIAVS
Technique: universal PBM
Molecule type: double-stranded DNA, one strand shown
Matrix: in vitro
Concentration: 600 nM
Setting: 8-mer, flanks averaged, mean of replicates
Direction: higher = stronger binding
`TATCTCGA` gave an E-score of 0.142.
For `ACACCCGC`, the E-score was -0.205.
The E-score of `AGCTCGAA` is reported as -0.119.
`AAAGACAC` has an E-score of 0.0617.
With `TTCCTCAA` the E-score was 0.0661.
The E-score of `AGACGGCA` is reported as -0.164.
The E-score of `CGTCTTAA` is reported as 0.03.
`CATGCCAG` gave an E-score of -0.235.

Block 2
Target: Histone acetyltransferase KAT6A, winged helix 2, GST fusion (KAT6A, Homo sapiens, UniProt Q92794, residues 85-181)
Technique: protein binding microarray
Molecule type: double-stranded DNA, one strand shown
Matrix: in vitro
Concentration: not given
Setting: 8-mer, flanks averaged, mean of 2 arrays, mostly near background
Relative to: not given
Direction: higher = stronger binding
Residues (chain): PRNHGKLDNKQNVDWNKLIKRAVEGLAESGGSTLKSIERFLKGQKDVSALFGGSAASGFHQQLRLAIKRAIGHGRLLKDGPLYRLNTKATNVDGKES
With `CATACCAA` the E-score was -0.0491.
For `AAAAGCGG`, the E-score was 0.0594.
`TACTAACA` has an E-score of 0.00825.
`ACGCCGGA` gave an E-score of 0.155.
`AAAGGGAG` has an E-score of -0.0488.
The E-score of `AAGCTCAT` is reported as -0.0664.
With `CGCGAAAA` the E-score was 0.124.
`GCCGGTCC` has an E-score of -0.0265.

Mixed results
For `PhoQ, residues 284 288 289 292 302 303 NLCILV`, the fold induction was 23.4 (PhoP, residues 12 14 15 18 19 SGWQI (Escherichia coli, UniProt P23836); Sort-seq, refers to: YFP reporter; E. coli; PhoQ-PhoP variant library, with: 10 µM Mg2+; relative to: high Mg2+ state, higher = stronger signaling).
For `NVAQTHMHHHLLHEV`, “minimum log2 enrichment ratio” read 3.19 (OGT (Homo sapiens, UniProt O15294); binding, phage display NGS; peptide; relative to: input library).

Some of these lines once more (block 1):
With `TTCCTCAA` the E-score was 0.0661.
